# Measurements of several laboratories.
# Each numbered part is a random draw from the data of one study; scales do not carry over between parts. “And” joins repeats or separate records; there may be more than shown.
# Sequence of UniProt Q9BVS4 (whole entry, looked up): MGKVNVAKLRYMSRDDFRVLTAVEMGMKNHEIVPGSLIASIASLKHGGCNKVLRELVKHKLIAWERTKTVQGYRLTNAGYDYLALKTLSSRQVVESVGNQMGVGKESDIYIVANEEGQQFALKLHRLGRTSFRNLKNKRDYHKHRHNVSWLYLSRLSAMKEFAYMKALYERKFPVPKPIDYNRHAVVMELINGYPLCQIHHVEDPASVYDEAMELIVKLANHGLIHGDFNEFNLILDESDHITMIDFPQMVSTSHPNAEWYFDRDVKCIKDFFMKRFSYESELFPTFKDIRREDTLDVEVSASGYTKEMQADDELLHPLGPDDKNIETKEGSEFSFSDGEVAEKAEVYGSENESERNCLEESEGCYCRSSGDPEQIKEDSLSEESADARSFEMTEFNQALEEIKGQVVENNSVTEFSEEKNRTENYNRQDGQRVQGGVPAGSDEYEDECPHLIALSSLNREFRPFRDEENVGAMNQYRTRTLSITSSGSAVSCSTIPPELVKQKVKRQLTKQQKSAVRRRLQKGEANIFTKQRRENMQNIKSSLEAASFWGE
# Sequence of UniProt Q02763 (whole entry, looked up): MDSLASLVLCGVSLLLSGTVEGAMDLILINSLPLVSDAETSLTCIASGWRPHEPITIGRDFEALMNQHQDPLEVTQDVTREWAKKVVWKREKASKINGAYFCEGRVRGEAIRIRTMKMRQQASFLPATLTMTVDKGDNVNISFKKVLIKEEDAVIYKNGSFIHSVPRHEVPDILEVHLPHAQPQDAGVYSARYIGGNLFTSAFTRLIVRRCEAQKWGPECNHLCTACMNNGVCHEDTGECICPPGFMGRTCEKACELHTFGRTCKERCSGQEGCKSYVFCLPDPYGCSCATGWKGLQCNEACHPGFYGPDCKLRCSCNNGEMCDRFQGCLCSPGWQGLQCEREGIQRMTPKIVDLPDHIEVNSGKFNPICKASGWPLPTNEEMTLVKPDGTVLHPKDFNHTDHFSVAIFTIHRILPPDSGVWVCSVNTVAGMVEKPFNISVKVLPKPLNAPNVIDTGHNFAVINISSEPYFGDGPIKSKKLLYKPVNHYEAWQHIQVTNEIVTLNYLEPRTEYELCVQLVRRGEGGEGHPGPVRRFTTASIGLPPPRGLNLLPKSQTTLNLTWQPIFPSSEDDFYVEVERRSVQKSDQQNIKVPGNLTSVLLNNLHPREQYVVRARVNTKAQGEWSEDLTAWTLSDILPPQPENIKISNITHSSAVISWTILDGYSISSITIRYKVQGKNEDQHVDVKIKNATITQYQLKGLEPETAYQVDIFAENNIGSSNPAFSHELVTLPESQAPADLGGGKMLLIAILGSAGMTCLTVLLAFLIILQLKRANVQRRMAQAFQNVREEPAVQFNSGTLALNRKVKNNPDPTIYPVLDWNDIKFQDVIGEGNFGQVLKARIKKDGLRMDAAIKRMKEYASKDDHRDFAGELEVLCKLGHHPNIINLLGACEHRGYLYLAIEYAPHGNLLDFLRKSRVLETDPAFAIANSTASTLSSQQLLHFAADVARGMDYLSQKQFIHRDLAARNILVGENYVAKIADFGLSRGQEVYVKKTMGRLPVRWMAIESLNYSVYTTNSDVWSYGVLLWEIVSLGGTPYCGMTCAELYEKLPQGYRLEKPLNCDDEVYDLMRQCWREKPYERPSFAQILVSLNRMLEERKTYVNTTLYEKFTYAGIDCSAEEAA
# Sequence of UniProt Q92918 (whole entry, looked up): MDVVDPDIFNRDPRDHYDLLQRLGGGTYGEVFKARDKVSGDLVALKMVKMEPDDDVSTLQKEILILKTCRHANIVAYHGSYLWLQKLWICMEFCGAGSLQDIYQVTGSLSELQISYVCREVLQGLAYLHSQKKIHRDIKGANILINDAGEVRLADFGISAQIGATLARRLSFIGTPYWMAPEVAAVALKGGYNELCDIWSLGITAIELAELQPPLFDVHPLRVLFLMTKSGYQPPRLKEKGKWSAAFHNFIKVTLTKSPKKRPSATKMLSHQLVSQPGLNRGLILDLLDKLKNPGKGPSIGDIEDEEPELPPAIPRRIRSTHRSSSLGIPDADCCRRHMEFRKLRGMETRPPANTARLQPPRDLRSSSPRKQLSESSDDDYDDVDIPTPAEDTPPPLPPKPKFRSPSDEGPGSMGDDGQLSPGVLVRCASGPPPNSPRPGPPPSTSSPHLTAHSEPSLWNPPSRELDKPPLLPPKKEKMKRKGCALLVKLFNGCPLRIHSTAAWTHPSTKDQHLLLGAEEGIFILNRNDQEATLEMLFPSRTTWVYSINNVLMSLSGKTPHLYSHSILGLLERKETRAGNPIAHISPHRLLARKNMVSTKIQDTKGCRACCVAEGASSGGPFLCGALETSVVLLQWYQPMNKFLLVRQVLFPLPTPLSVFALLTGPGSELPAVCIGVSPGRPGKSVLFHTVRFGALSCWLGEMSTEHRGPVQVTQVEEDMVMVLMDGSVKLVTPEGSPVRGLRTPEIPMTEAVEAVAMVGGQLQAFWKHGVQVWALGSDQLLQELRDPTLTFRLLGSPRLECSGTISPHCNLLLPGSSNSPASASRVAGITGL
# Sequence of UniProt Q8TBX8 (whole entry, looked up): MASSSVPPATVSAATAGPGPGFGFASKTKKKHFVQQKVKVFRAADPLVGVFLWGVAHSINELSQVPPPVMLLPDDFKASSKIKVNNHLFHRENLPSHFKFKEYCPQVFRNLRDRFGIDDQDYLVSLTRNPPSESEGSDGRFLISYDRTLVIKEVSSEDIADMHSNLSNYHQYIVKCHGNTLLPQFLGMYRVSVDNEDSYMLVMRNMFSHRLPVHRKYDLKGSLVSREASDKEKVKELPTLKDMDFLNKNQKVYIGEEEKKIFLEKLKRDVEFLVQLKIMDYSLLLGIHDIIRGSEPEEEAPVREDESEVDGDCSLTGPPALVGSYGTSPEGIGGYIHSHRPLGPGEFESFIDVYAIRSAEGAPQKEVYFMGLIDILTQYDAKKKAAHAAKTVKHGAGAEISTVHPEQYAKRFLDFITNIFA
# Sequence of UniProt Q9Y6M4 (whole entry, looked up): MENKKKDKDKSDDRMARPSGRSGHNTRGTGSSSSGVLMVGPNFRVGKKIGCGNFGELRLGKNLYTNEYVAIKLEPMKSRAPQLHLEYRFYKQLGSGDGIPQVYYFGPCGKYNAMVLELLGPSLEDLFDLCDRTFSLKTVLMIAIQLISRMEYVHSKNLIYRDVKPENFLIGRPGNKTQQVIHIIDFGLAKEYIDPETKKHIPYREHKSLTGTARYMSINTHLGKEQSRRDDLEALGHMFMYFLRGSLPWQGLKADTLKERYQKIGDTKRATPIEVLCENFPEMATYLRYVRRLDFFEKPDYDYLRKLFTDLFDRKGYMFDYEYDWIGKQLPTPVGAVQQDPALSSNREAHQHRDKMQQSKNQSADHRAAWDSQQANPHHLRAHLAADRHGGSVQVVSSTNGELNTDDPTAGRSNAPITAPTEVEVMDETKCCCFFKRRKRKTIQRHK
# Sequence of UniProt Q9UK32 (whole entry, looked up): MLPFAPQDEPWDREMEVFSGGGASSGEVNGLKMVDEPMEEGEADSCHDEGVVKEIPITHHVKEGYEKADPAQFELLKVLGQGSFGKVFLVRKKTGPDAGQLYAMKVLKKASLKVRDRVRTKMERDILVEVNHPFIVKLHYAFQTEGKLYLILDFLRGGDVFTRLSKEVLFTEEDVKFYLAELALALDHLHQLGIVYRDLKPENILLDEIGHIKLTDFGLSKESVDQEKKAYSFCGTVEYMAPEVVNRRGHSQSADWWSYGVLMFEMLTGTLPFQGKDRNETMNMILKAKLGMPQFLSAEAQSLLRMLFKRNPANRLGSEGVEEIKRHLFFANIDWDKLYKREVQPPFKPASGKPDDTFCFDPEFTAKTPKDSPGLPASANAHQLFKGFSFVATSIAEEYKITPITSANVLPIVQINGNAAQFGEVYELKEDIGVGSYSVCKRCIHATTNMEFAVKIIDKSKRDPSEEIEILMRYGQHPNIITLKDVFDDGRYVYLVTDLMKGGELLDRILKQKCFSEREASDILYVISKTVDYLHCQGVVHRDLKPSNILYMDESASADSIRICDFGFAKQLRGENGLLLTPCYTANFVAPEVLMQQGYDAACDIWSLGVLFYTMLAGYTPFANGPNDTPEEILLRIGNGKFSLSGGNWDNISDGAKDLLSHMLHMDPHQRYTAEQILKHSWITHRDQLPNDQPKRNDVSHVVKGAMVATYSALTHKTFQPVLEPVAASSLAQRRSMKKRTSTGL
# Sequence of UniProt Q9BQI3 (whole entry, looked up): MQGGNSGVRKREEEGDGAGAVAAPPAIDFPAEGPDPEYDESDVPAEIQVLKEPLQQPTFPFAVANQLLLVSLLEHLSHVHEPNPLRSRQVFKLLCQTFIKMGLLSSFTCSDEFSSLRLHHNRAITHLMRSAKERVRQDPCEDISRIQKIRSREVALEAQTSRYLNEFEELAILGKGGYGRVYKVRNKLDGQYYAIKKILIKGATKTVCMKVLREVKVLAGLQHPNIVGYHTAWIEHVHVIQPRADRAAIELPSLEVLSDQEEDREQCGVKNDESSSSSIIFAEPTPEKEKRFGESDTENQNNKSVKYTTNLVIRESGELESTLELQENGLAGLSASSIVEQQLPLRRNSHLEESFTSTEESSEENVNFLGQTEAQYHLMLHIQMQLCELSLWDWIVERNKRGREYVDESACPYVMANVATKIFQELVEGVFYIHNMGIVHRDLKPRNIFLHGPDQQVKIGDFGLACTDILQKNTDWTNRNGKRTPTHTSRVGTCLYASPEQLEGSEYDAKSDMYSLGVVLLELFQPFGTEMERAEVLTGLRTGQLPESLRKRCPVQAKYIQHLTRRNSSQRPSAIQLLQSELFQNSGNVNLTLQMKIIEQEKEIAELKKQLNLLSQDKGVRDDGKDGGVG

# Study 1
# Structure (SMILES): CCC(=O)N[C@H]1CC[C@@H](C(=O)N(C)c2ccc(-c3nc4ccccc4o3)cc2)C1
# Effect on: cell-free assay
# Method: competition with immobilised ligand
# Concentration: 1 µM
target,remaining binding [%]
"ACVR2B (Homo sapiens, UniProt Q13705)",100
"STK10 (Homo sapiens, UniProt O94804)",100
"Non-receptor tyrosine-protein kinase TYK2, JH2 (TYK2, Homo sapiens, UniProt P29597)",95
"GRK4 (Homo sapiens, UniProt P32298)",100
"ALK (Homo sapiens, UniProt Q9UM73, L1196M)",93
"NEK10 (Homo sapiens, UniProt Q6ZWH5)",80
"EPHB2 (Homo sapiens, UniProt P29323)",100
"Ribosomal protein S6 kinase alpha-6, C-terminal kinase domain (RPS6KA6, Homo sapiens, UniProt Q9UK32)",92
"PIP4K2C (Homo sapiens, UniProt Q8TBX8)",100
"PIK3CA (Homo sapiens, UniProt P42336, H1047Y)",97
"STK38L (Homo sapiens, UniProt Q9Y2H1)",79
"MAP4K1 (Homo sapiens, UniProt Q92918)",100
"EIF2AK1 (Homo sapiens, UniProt Q9BQI3)",93
"RIOK2 (Homo sapiens, UniProt Q9BVS4)",84
"Tyrosine-protein kinase ABL1, non-phosphorylated (ABL1, Homo sapiens, UniProt P00519, H396P)",100
"Ribosomal protein S6 kinase alpha-3, C-terminal kinase domain (RPS6KA3, Homo sapiens, UniProt P51812)",87
"Tyrosine-protein kinase JAK3, JH1 (JAK3, Homo sapiens, UniProt P52333)",100
"BMP2K (Homo sapiens, UniProt Q9NSY1)",91
"PTK2 (Homo sapiens, UniProt Q05397)",100
"MINK1 (Homo sapiens, UniProt Q8N4C8)",89

# Study 2
# Compound: CN(C)C[C@H]1CCn2c(c(C3=C(c4cn(C)c5ccccc45)C(=O)NC3=O)c3ccccc32)C1
# Effect on: enzyme activity
# Mode: inhibitor
# Concentration: 0.5 µM
# Baseline: control
target,remaining activity [%]
"ARAF (Homo sapiens, UniProt P10398)",109
"MAP2K2 (Homo sapiens, UniProt P36507)",101
"MST1R (Homo sapiens, UniProt Q04912)",98.3
"TEK (Homo sapiens, UniProt Q02763)",98.4
"MAP3K5 (Homo sapiens, UniProt Q99683)",107
"ABL2 (Homo sapiens, UniProt P42684)",96.3
"ULK2 (Homo sapiens, UniProt Q8IYT8)",105
"MERTK (Homo sapiens, UniProt Q12866)",95.4
"GSK3B (Homo sapiens, UniProt P49841)",11.2
"CSNK1G3 (Homo sapiens, UniProt Q9Y6M4)",104
"TAOK2 (Homo sapiens, UniProt Q9UL54)",87.7
"FGFR3 (Homo sapiens, UniProt P22607)",96.3
"FGFR1 (Homo sapiens, UniProt P11362)",87.8

# Study 3
# Cell line: mouse MPNST tumor cells
# Method: high-content nuclear imaging
# Measured: cell number
# Concentration: 10 µM
# Time: 12 h
# Notes: mean of 2 replicates
# Baseline: plate mean
# Direction: higher = more cells
Compound,nuclei count
CCCc1nc2c(C)cc(-c3nc4ccccc4n3C)cc2n1Cc1ccc(-c2ccccc2C(=O)O)cc1,1.81 z-score and -0.689 z-score
CCN1CCCC1CNC(=O)c1cc(S(N)(=O)=O)ccc1OC (stereo not drawn),-1.17 z-score
CCCc1nn(C)c2c(=O)[nH]c(-c3cc(S(=O)(=O)N4CCN(C)CC4)ccc3OCC)nc12,2.03 z-score and 0.947 z-score and 0.564 z-score
CCC(=O)c1cc(-c2ccc(Cl)cc2)n(-c2ccc(S(N)(=O)=O)cc2)c1C,4.56 z-score
CN(Cc1ccccc1)C(=O)[C@H](Cc1ccc2ccccc2c1)NC(=O)[C@@H]1C[C@@H](O)CN1C(=O)c1cn(C)c2ccccc12,0.555 z-score
Nc1nc(OCc2cc(Br)cs2)c2[nH]cnc2n1,1.51 z-score
OC(c1ccccc1)C1CCN(CCc2ccccc2)CC1 (stereo not drawn),-0.279 z-score
CC(C)NCCN(C(C)C)S(=O)(=O)c1ccc(Cl)cc1Cl,2.9 z-score
CN1CCC(OC(c2ccccc2)c2ccccc2)CC1,2.95 z-score
CN(C)CCCN1c2ccccc2CCc2ccc(Cl)cc21,-6.2 z-score
CCOC(=O)C1=C(C)NC(=S)NC1c1cccc(O)c1 (stereo not drawn),1.58 z-score
CC(=O)N[C@@H](Cc1c[nH]c2ccccc12)C(=O)OCc1cc(C(F)(F)F)cc(C(F)(F)F)c1,0.585 z-score
CC(=O)[C@@]1(O)CC[C@H]2[C@@H]3C[C@H](C)C4=CC(=O)C=C[C@]4(C)[C@@]3(F)[C@@H](O)C[C@@]21C,5.93 z-score
O=C(NCCCCN1CCOCC1)c1cc2ccccc2o1,-0.0551 z-score
COc1c(N2CCNC(C)C2)c(F)cc2c(=O)c(C(=O)O)cn(C3CC3)c12 (stereo not drawn),0.967 z-score

# Study 4
# Compound: CC(C)C[C@@H]1NC(=O)[C@@H](N(C)C(=O)[C@H](CC2CCC2)NC(=O)[C@@H]2C[C@@H](F)CN2C(=O)C2(C(F)(F)F)CC(F)(F)C2)CCCCNC(=O)C2(CC2)NC(=O)[C@H](Cc2cc(Cl)ccc2Cl)N(C)C1=O
# Cell line: human CD34+ HSPC
# Method: EdU flow cytometry
# Time: 24 h
setting,S-phase cells
300 nM,43.8% and 45.1%
10000 nM,48.1% and 45%
10 nM,43.9% and 46.4%

# Excerpt of the above (study 3):
Compound,nuclei count
CC(=O)[C@@]1(O)CC[C@H]2[C@@H]3C[C@H](C)C4=CC(=O)C=C[C@]4(C)[C@@]3(F)[C@@H](O)C[C@@]21C,5.93 z-score
CC(C)NCCN(C(C)C)S(=O)(=O)c1ccc(Cl)cc1Cl,2.9 z-score
CCC(=O)c1cc(-c2ccc(Cl)cc2)n(-c2ccc(S(N)(=O)=O)cc2)c1C,4.56 z-score
CCN1CCCC1CNC(=O)c1cc(S(N)(=O)=O)ccc1OC (stereo not drawn),-1.17 z-score
COc1c(N2CCNC(C)C2)c(F)cc2c(=O)c(C(=O)O)cn(C3CC3)c12 (stereo not drawn),0.967 z-score
